# Experimental data of several laboratories.
# Parts stem from different laboratories: compare values within a part only.
# Chain of UniProt O15530 (whole entry, looked up): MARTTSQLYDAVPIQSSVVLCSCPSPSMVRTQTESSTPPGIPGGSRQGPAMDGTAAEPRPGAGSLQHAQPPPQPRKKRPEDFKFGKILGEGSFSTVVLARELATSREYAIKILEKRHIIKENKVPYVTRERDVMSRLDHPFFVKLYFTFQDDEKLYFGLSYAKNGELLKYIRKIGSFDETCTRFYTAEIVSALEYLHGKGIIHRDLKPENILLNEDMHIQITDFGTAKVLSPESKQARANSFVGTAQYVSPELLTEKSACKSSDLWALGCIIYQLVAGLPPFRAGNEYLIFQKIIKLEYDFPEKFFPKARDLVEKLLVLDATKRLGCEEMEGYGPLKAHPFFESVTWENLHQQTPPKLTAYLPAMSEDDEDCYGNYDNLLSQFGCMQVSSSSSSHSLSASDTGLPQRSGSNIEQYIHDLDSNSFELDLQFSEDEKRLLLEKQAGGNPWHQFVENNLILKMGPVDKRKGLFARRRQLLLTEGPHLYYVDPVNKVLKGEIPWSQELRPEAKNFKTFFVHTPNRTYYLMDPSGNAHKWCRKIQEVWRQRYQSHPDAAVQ
# Chain of UniProt Q04912 (whole entry, looked up): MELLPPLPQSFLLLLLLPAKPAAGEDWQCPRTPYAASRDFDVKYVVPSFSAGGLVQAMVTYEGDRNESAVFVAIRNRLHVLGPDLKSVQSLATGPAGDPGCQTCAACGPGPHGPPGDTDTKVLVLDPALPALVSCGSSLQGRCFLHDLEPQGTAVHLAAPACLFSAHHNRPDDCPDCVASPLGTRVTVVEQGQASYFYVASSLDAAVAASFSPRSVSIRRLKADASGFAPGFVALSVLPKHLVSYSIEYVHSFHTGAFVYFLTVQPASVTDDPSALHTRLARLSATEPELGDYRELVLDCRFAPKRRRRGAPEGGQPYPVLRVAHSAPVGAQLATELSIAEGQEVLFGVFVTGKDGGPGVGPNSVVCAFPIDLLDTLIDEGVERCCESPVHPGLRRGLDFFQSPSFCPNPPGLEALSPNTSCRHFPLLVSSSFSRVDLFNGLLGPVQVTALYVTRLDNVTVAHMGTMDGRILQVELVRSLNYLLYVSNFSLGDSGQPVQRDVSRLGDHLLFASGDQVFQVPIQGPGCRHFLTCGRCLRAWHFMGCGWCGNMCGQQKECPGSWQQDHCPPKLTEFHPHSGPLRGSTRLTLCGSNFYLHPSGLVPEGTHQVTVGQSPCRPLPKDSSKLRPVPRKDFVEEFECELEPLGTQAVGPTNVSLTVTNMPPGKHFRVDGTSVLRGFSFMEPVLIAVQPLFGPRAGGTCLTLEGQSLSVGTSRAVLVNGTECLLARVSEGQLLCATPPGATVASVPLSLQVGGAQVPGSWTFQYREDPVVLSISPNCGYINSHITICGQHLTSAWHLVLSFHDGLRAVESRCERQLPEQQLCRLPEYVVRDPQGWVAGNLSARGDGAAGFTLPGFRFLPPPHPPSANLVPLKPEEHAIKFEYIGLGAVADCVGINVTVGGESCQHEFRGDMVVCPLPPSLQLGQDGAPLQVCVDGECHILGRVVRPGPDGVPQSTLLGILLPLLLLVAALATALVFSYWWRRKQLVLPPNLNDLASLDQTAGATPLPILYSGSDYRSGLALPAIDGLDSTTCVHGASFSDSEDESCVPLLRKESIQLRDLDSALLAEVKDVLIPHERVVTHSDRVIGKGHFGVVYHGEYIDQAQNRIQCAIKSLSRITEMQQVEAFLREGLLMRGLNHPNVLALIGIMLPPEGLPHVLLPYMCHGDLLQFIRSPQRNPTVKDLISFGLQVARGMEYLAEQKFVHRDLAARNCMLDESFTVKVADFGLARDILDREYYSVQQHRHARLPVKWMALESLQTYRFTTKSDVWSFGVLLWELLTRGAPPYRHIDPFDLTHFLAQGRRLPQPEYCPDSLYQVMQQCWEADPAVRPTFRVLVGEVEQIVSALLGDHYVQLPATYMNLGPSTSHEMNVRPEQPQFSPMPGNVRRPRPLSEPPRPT
# Chain of UniProt P31751 (whole entry, looked up): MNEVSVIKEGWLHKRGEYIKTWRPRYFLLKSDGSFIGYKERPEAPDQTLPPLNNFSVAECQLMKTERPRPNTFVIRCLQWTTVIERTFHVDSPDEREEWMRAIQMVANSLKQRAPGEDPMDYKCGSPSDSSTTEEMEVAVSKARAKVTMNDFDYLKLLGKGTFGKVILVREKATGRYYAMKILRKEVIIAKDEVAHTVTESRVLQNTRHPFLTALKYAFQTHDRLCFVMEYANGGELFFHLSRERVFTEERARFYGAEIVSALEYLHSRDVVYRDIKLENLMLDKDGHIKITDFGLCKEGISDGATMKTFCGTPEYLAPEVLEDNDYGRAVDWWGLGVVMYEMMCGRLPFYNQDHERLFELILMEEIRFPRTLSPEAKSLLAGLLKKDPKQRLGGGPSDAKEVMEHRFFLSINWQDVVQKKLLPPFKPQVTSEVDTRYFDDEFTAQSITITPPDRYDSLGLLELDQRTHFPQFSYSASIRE
# Chain of UniProt Q08881 (whole entry, looked up): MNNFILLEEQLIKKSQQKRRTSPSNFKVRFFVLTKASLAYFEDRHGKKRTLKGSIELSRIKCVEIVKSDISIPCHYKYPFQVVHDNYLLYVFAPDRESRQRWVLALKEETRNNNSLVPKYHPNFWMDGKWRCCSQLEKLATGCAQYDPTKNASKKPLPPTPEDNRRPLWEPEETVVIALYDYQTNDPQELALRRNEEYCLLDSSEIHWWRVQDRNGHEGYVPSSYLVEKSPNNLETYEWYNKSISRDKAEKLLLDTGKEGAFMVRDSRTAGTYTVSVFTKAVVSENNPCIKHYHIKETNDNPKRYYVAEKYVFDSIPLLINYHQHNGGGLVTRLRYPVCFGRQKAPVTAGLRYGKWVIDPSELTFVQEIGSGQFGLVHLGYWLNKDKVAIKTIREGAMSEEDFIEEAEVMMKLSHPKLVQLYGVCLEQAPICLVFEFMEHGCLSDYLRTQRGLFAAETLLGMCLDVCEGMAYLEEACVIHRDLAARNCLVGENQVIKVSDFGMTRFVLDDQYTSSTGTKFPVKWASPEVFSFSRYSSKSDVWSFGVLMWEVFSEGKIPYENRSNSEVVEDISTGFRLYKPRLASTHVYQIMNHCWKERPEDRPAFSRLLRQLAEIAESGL
# Chain of UniProt Q8TD19 (whole entry, looked up): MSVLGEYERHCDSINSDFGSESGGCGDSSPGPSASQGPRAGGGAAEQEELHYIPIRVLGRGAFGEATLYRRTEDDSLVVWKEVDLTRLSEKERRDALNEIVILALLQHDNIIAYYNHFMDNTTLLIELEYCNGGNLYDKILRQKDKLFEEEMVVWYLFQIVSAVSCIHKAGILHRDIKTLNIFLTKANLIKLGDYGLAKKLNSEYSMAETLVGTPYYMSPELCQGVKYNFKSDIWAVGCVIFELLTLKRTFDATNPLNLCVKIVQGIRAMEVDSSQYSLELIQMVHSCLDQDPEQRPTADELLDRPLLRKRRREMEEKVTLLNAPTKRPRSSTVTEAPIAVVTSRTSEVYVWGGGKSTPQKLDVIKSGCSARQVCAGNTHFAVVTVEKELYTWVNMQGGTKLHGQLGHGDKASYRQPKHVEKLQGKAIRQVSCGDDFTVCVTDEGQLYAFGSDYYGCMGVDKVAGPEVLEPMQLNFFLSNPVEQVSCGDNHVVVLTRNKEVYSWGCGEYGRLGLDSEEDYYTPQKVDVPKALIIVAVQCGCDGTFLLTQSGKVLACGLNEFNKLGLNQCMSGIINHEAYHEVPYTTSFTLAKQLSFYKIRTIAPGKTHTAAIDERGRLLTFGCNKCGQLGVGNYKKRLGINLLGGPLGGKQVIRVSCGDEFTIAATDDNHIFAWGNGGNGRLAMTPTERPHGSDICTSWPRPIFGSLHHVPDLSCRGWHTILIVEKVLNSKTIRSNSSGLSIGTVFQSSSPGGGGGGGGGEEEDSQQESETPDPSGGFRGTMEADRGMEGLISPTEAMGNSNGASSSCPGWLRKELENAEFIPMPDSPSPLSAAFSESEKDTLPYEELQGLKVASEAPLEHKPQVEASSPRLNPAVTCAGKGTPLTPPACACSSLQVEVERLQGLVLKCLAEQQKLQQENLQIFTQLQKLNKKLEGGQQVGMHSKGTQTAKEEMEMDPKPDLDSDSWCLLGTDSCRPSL
# Chain of UniProt Q9P289 (whole entry, looked up): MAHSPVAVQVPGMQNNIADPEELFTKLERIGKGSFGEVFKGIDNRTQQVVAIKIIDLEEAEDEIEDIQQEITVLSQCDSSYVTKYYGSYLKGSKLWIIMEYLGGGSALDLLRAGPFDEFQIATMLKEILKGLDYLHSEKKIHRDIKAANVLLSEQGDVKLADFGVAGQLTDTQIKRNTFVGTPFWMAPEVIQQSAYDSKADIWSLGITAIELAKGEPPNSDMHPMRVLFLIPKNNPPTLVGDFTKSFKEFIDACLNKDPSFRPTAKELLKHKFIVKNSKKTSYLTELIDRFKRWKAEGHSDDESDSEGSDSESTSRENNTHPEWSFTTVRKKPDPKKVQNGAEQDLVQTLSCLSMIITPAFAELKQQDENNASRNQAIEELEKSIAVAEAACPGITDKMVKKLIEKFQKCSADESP
# Chain of UniProt P46734 (whole entry, looked up): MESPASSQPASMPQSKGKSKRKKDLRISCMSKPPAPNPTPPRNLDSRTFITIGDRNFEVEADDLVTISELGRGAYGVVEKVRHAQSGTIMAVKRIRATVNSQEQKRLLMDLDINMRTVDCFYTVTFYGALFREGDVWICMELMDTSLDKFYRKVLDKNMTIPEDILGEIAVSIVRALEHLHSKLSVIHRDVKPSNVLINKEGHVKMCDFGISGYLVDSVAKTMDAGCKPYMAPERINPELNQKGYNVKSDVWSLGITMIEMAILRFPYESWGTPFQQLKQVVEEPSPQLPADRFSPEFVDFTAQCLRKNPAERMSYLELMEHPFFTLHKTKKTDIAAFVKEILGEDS

# Block 1 — effect on: cell-free assay; method: competition with immobilised ligand; tested at: 1 µM
# Structure (SMILES): C[C@@H]1CN(c2cc(-c3nn(C)c4ccc(OC5(C)CC5)cc34)ncn2)C[C@H](C)O1
target,remaining binding [%]
"NEK9 (Homo sapiens, UniProt Q8TD19)",71
"PAK4 (Homo sapiens, UniProt O96013)",93
"AKT3 (Homo sapiens, UniProt Q9Y243)",100
"STK26 (Homo sapiens, UniProt Q9P289)",74
"PDPK1 (Homo sapiens, UniProt O15530)",100
"AXL (Homo sapiens, UniProt P30530)",100
"FGFR3 (Homo sapiens, UniProt P22607, G697C)",100
"Ribosomal protein S6 kinase alpha-1, N-terminal kinase domain (RPS6KA1, Homo sapiens, UniProt Q15418)",100
"MAPK9 (Homo sapiens, UniProt P45984)",78
"MST1R (Homo sapiens, UniProt Q04912)",100
"MTOR (Homo sapiens, UniProt P42345)",100
"ITK (Homo sapiens, UniProt Q08881)",96
"MAP2K3 (Homo sapiens, UniProt P46734)",70

# Block 2 — method: protein-binding microarray; molecule type: hairpin DNA; sample: in vitro; tested at: not given; reference: not given; direction: higher = stronger binding; shared flanks, not repeated: GAGGCCA … TGGCCTCACACTCTT
# Target: POU domain, class 6, transcription factor 1, POU and homeodomain (POU6F1, Homo sapiens, UniProt Q14863, residues 311-611)
# Notes: whole hairpin DNA, median over replicate spots
# Target sequence (chain): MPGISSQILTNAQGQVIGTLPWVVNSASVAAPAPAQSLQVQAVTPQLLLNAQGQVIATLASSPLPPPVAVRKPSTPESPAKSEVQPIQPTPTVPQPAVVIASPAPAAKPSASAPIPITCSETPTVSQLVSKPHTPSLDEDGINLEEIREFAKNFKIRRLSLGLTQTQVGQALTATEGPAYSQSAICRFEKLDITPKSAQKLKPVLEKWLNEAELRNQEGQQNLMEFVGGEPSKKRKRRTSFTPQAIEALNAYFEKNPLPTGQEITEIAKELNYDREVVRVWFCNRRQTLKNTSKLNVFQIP
Sequence,median fluorescence
TAAAGAGGTGCCTCCTGGCACCTCTTTA,454 a.u.
TAATTACGTGCCTCCTGGCACGTAATTA,1050 a.u.
TCGTTAGGTGCCTCCTGGCACCTAACGA (5mC at 9),333 a.u.
TCGTTAGGTGCCTCCTGGCACCTAACGA,336 a.u.
TAATGCGGTGCCTCCTGGCACCGCATTA,524 a.u.
TCGTTAGGTGCCTCCTGGCACCTAACGA (5mC at 33),376 a.u.
CGATTAGGTGCCTCCTGGCACCTAATCG (5mC at 8 34),353 a.u.
TAATGACGTGCCTCCTGGCACGTCATTA (5mC at 14 28),938 a.u.

# Block 3 — species: human patients; sample: plasma; dose: 150 mg once daily
# SMILES: COc1ccc(-c2c(Nc3ccccn3)[nH]c3c(C4=CCCCC4)c(-c4ccccc4)nn3c2=O)cc1
assay,conditions,median concentration
measured: S-adenosylmethionine,4 h,18.1 ng/mL
measured: S-adenosylmethionine,6 h,17.9 ng/mL
measured: methionine,0 h,105000 ng/mL

# Further values, each from its own experiment
SMILES,tested on,assay,test system,conditions,measurement,value
O=C(c1ccc2nncn2c1)N1CC(c2ccccc2)C2(CCC2)C1 (centres unmarked),,,"human, microsomes or S9","2 µM, 0.5 h",remaining compound,93.2%
C#C[C@]1(O)CC[C@H]2[C@@H]3CCc4cc(OC5CCCC5)ccc4[C@H]3CC[C@@]21C,HaCaT,,,"100 µM, 36 h",viability,4.88%
CCN(CC)CCCCN1c2ccccc2Oc2ccc(Cl)cc21,"AKT2 (Homo sapiens, UniProt P31751)","enzyme activity, inhibitor, radiometric",,,IC50,> 30 µM
COc1ccc(CCc2nc(CCS(C)(=O)=O)c(O)c(C(=O)O)c2C(=O)O)cc1,,,"human, microsomes or S9","2 µM, 0.5 h",remaining compound,92.2%
Nc1ccc(S(=O)(=O)Nc2ccc(Cl)nn2)cc1,HaCaT,,,"100 µM, 36 h",viability,49.5%
